Assay results of several laboratories.
Protocols differ between the studies behind these lines. ± gives the spread as reported.

Under “entropic term −TΔS of aggregation”, `CCCCCCCCCCCCC(=O)O.O=C1CCCC2C3CCCN4CCCC(CN12)C34` (stereo not shown) is recorded as -8.32 kcal/mol (electrical conductivity; water; 313.15 K).
With `CCOP(=O)(OCC)OCCCCOC(=O)CC1=C(C)/C(=C/c2ccc([S+](C)[O-])cc2)c2ccc(F)cc21` (stereo not shown) the Tmax was 30 min (rat, blood; oral, 50 mg/kg).
With `CCCS(=O)(=O)c1ccc2[nH]c(NC(=O)OC)nc2c1` the percent metabolized was 0.99% (human liver cytosol; 1 µM, 30 min, 1 mg/mL protein).
The parent remaining of `O=C(NCCCCCCn1ccc2ccccc21)Oc1ccccc1` is reported as 68 ± 8% (porcine plasma; 20 µM, 30 min).
`CC(C)[C@H](NC(=O)CNC(=O)[C@H](CCC(N)=O)NC(=O)[C@H](C)N)C(=O)O` — result for “subjects with any adverse event”: 16.7% (human; 1 mg/kg single dose).
For `CC[C@H](C)[C@H](NC(=O)[C@H](CC(=O)O)NC(=O)[C@H](CO)NC(=O)[C@H](CCC(N)=O)NC(=O)[C@H](C)NC(=O)[C@H](CC(=O)O)NC(=O)[C@H](CCC(=O)O)NC(=O)[C@H](Cc1c[nH]cn1)NC(=O)[C@H](Cc1ccc(O)cc1)NC(=O)[C@H](C)NC(=O)[C@H](CC(=O)O)NC(=O)[C@H](CCC(=O)O)NC(=O)[C@H](Cc1c[nH]cn1)NC(=O)[C@H](Cc1ccc(O)cc1)NC(=O)[C@H](C)NC(=O)[C@H](CC(=O)O)NC(=O)[C@H](CCC(=O)O)NC(=O)[C@H](Cc1c[nH]cn1)NC(=O)[C@H](Cc1ccc(O)cc1)NC(=O)[C@H](C)NC(=O)[C@H](CC(=O)O)NC(=O)[C@H](CCC(=O)O)NC(=O)[C@H](Cc1c[nH]cn1)NC(=O)[C@H](Cc1ccc(O)cc1)NC(=O)[C@H](C)NC(=O)[C@H](CC(=O)O)NC(=O)[C@H](CCC(=O)O)NC(=O)[C@H](Cc1c[nH]cn1)NC(=O)[C@@H](N)Cc1ccc(O)cc1)C(=O)N[C@H](C(=O)N[C@@H](C)C(=O)N[C@@H](Cc1c[nH]cn1)C(=O)N[C@@H](CC(C)C)C(=O)N[C@@H](CC(C)C)C(=O)O)C(C)C`, “NE share of white cells” read 17.7 ± 3.4% (mouse SN model, blood; dose not given).
For `COc1cc(NC(=O)C(=O)c2c(C)n(Cc3ccc(Cl)cc3)c3ccc(C)cc23)ccn1`, the clearance was 8 mL/min/kg (male cynomolgus monkey, plasma; intravenous, 1 mg/kg).
For `CCNc1cc2[o+]c3cc(NCC)c(C)cc3c(-c3ccccc3C(=O)OCCOCC[18F])c2cc1C`, “tissue uptake ratio” read 6 (rat; 60 min; baseline: heart over liver).
For `O=S(=O)(O)C(F)(F)C(F)(F)OC(F)(C(F)(F)F)C(F)(F)OC(F)C(F)(F)F` (stereo not shown), “male sex effect on concentration” read 0.34 ng/mL (human, serum; concentration not given).
`CN[C@](C)(C[18F])C(=O)O` has a tracer uptake of 3.3 %ID/g (mouse, bone; 15 min, tumour-bearing).
`CC(=O)OC1O[C@@H]2O[C@@]3(C)CC[C@H]4[C@H](C)CCC([C@H]1C)[C@@]24OO3` (stereo partly shown) gave a dead embryos of 1 count (Tg(fli1:EGFP) zebrafish embryos; 0.1 µg/mL, up to 48 hpf).
For `CC[C@H](C)[C@@H]1NC(=O)[C@H](CCCCN)NC(=O)[C@H](CCCCN)NC(=O)[C@H](Cc2ccc(O)cc2)NC(=O)[C@H](CC(C)C)NC(=O)[C@@H]2CCCN2C(=O)[C@H](C)NC(=O)CNC(=O)CNC(=O)[C@H](CO)NC(=O)CNC(=O)CNC(=O)[C@H](CO)NC(=O)[C@H](CCC(=O)O)NC(=O)[C@H](CC(C)C)NC(=O)[C@H](CC(C)C)NC(=O)[C@H](CCCCN)NC(=O)[C@H](CCCCN)NC(=O)[C@H]([C@@H](C)CC)NC(=O)[C@H]([C@@H](C)CC)NC(=O)[C@H](CCCCN)NC(=O)[C@H](CCCCN)NC(=O)[C@H](Cc2ccc(O)cc2)NC(=O)[C@H](CC(C)C)NC(=O)[C@@H]2CCCN2C(=O)[C@H](C)NC(=O)CNC(=O)CNC(=O)[C@H](CO)NC(=O)CNC(=O)CNC(=O)[C@H](CO)NC(=O)[C@H](CCC(=O)O)NC(=O)[C@H](CC(C)C)NC(=O)[C@H](CC(C)C)NC(=O)[C@H](CCCCN)NC(=O)[C@H](CCCCN)NC(=O)[C@H]([C@@H](C)CC)NC1=O`, “remaining intact peptide” read 88.8 ± 2.8% (25% human serum; 50 µM, 24 h; baseline: 0 h control).
The luminescence lifetime of `COc1ccc([N+]#[C][Re]2(=[C]=O)(=[C]=O)(=[C]=O)[N]3C(C)=CC=c4ccc5c(c43)[N]2C(C)=CC=5)cc1.O=S(=O)([O-])C(F)(F)F` is reported as 4 µs (PBS; pH 7.4, nitrogen-saturated).
With `CC(C)[C@]12O[C@H]1[C@@H]1O[C@]13[C@]1(O[C@H]1C[C@H]1c4c(C(=O)c5ccccc5)oc(OC(=O)c5ccccc5)c4CC[C@@]13C)[C@@H]2O` the MTD was 4.5 mg/kg (Sprague Dawley rat, male; intravenous, single injection).
With `CC[C@H](C)[C@H](NC(=O)CN)C(=O)N[C@@H](CC(C)C)C(=O)N[C@@H](CCCCN)C(=O)N[C@@H](Cc1ccccc1)C(=O)N[C@@H](CC(C)C)C(=O)N[C@@H](CCC(=O)O)C(=O)N[C@@H](CO)C(=O)N[C@@H](C)C(=O)N[C@@H](CCCCN)C(=O)N[C@@H](CCCCN)C(=O)N[C@@H](Cc1c[nH]c2ccccc12)C(=O)N[C@@H](CC(C)C)C(=O)N[C@@H](CCC(=O)O)C(=O)N[C@@H](C)C(=O)N[C@@H](Cc1ccccc1)C(=O)N[C@@H](CC(C)C)C(=O)N[C@@H](C)C(=O)N[C@@H](CCC(=O)O)C(=O)N[C@H](C(=O)N[C@@H](CCSC)C(=O)N[C@@H](CC(N)=O)C(=O)N[C@@H](CO)C(=O)O)[C@@H](C)CC` the helicity was 69% (circular dichroism; POPC vesicles 5 mM; 20 µM, fully membrane bound).
`COC(=O)C[C@](O)(CCCC(C)(C)OC(C)=O)C(=O)O[C@@H]1C(OC)=C[C@]23CCCN2CCc2cc4c(cc2[C@H]13)OCO4` gave a tissue concentration of 289 ng/mL (CD1 mouse, spleen; oral, 1 mg/kg, 0.5 h).
The Cmax of `O=c1cc(-c2ccccc2)oc2c(Br)c(O)c(O)c(O)c12` is reported as 323 ng/mL (C57BL/6 mouse, plasma; oral, 50 mg/kg, single dose).
`CC[C@H](C)[C@H](NC(=O)[C@H](Cc1ccccc1)NC(=O)[C@H](CC(=O)O)NC(=O)[C@H](CCCN)NC(=O)[C@H](Cc1ccccc1)NC(=O)[C@H](Cc1ccccc1)NC(=O)[C@H](CCCCN)NC(=O)[C@H](CCCN)NC(=O)[C@H](CC(C)C)NC(=O)[C@H](CCCNC(=N)N)NC(=O)[C@H](CCSC)NC(=O)[C@H](C)N)C(=O)N[C@@H](CC(C)C)C(=O)N[C@@H](CCC(N)=O)C(=O)N[C@@H](CCCNC(=N)N)C(=O)N[C@@H](CCCCN)C(=O)N[C@@H](CCCCN)C(=O)O` has a helicity of 18.5% (circular dichroism; 20% TFE in PBS; 200 µM, pH 7.4, 25 °C).
`Cc1cccc(-c2cccc(C)n2)n1.[Cl-].[Cl-].[Ru+2].c1ccc(-c2ccccn2)nc1.c1ccc(-c2ccccn2)nc1` gave a photoactivation half-life of 0.252 ± 0.0117 min (UV/Vis; PBS; concentration not given).
`O=C1C(P(=O)(O)O)CCCN1O` (stereo not shown) gave a half-life ratio of 10 (cynomolgus monkey; intravenous, dose not given; baseline: monkey over mouse).
The Km of `C[C@]12CC[C@H](O)CC1CCC1C2[C@H](O)C(=O)[C@]2(C)[C@@H](c3ccc(=O)oc3)CC[C@]12O` (stereo partly shown) is reported as 137 ± 10.9 µM (sulfation, substrate; pig liver cytosol; pH 7.4).
With `CC(C)C[C@H](NC(=O)[C@H](CCCCN)NC(=O)[C@H](CCC(=O)O)NC(=O)[C@H](C)NC(=O)[C@@H](NC(=O)[C@H](CCCCN)NC(=O)[C@H](CC(=O)O)NC(=O)[C@H](Cc1ccc(O)cc1)NC(=O)[C@H](Cc1ccccc1)NC(=O)[C@H](C)NC(=O)[C@H](CCCCN)NC(=O)[C@H](CC(C)C)NC(=O)[C@H](Cc1c[nH]c2ccccc12)NC(=O)[C@@H](N)CC(=O)O)C(C)C)C(=O)N[C@@H](CCCCN)C(=O)N[C@@H](CCC(=O)O)C(=O)N[C@@H](C)C(=O)N[C@@H](Cc1ccccc1)C(=O)N1CCC[C@H]1C(=O)N[C@@H](CC(=O)O)C(=O)N[C@@H](Cc1c[nH]c2ccccc12)C(=O)N[C@@H](C)C(=O)N[C@@H](CCCCN)C(=O)N[C@@H](C)C(=O)N[C@@H](C)C(=O)N[C@@H](Cc1ccc(O)cc1)C(=O)N[C@@H](CC(=O)O)C(=O)N[C@@H](CCCCN)C(=O)N[C@@H](C)C(=O)N[C@@H](C)C(=O)N[C@@H](CCC(=O)O)C(=O)N[C@@H](CCCCN)C(=O)N[C@@H](C)C(=O)N[C@@H](CCCCN)C(=O)N[C@@H](CCC(=O)O)C(=O)N[C@@H](C)C(=O)N[C@@H](C)C(=O)O` the clearance was 0.25 mL/min/kg (cynomolgus monkey female, plasma; intravenous infusion, 8 mg/kg, day 1, 30 min infusion).
For `COC(=O)C[C@H](NC(=O)[C@H](C)NC(=O)[C@@H](NC(=O)[C@H](CC(=O)OC)NC(=O)[C@@H](NC(=O)c1ccc2ccccc2n1)C(C)C)C(C)C)C(=O)COc1c(F)cccc1F`, “developmental cell death” read “no effect” (TUNEL; rat pups, brain; 1 mg/kg).
The radioactivity concentration of `CCN(CC)c1ccc2c(-c3ccccc3C(=O)OCCC[18F])c3ccc(=[N+](CC)CC)cc-3oc2c1` is reported as 65 ± 6 kBq/cm³ (microPET; rat, liver; dose not given, 5 min post injection).
`NC(=O)[C@@H](CCCCNC(=O)CNC(=O)CCC(=O)NCCc1c[nH]cn1)NC(=O)[C@@H](Cc1ccc(O)cc1)NC(=O)[C@@H](CCCCNC(=O)CNC(=O)CCC(=O)NCCc1c[nH]cn1)NC(=O)Cc1ccc(CN2CCN(CC(=O)O)CCN(CC(=O)O)CC2)cc1` [fluorine-18 labelled] has a tissue ratio of 123 ± 38 (tumour-bearing nude mice; intravenous, 1 h, TF2 pretargeting; baseline: tumour over liver).
For `O=C1Nc2ccccc2/C1=N\Nc1nnc2n1N=C(c1ccc(Cl)cc1)CS2`, toxicity read “toxic” (chick embryo, chorioallantoic membrane; 40 µM).
With `CC=C(C)C(=O)OC1C2C3(C)CCC(OC4CC(OC)C(OC5OC(C)C(O)C(OC)C5O)C(C)O4)CC3CCC23OC32CCC(C(C)=O)C2(C)C1OC(C)=O` (stereo not shown) the efflux ratio was 1.43 (Caco-2; 10 µM).
For `CC[C@H](C)C(=O)N1CCC(NC(=O)Nc2ccc(OC(F)(F)F)c(F)c2)CC1`, “participants with any Severe TEAE” read 0% (healthy volunteers, both sexes; oral, 8 mg single dose, fasted state).
`C[C@@H](O)[C@H](NC(=O)[C@H](CCCCN)NC(=O)COCCN)C(=O)N[C@@H](CCCNC(=N)N)C(=O)NC(C)(C)C(=O)N[C@@H](CCCNC(=N)N)C(=O)NC(C)(C)C(=O)N[C@H](C(=O)N[C@@H](CO)C(=O)N[C@@H](Cc1c[nH]cn1)C(=O)N[C@@H](Cc1ccc(O)cc1)C(=O)NCC(=O)O)[C@@H](C)O` gave a haematocrit of 35 to 45% (C57BL/6 mouse, blood; intravenous, 50 mg/kg, 10 h).
`CC(=O)N(O)CCC[C@@H]1NC(=O)CNC(=O)[C@H](CO)NC(=O)CNC(=O)[C@H](CCCN(O)C(C)=O)NC(=O)[C@H](CCCN(O)C(C)=O)NC1=O` [gallium-68 labelled] gave a blood level of 16.1 ± 1.07 %ID/g (BALB/c mice, noninfected, blood; intravenous, dose not given, 90 min).
`[11CH3]n1c(=O)n(CCCO)c(=O)c2c1nc(Oc1cccc(OC(F)(F)F)c1)n2Cc1ccc(Cl)cc1` has a tracer uptake of 0.82 ± 0.16 %ID/g (ex vivo biodistribution; Sprague Dawley rat, kidney; 60 min post injection).

Some of these lines once more:
`CN[C@](C)(C[18F])C(=O)O` has a tracer uptake of 3.3 %ID/g (mouse, bone; 15 min, tumour-bearing).
For `CC[C@H](C)[C@@H]1NC(=O)[C@H](CCCCN)NC(=O)[C@H](CCCCN)NC(=O)[C@H](Cc2ccc(O)cc2)NC(=O)[C@H](CC(C)C)NC(=O)[C@@H]2CCCN2C(=O)[C@H](C)NC(=O)CNC(=O)CNC(=O)[C@H](CO)NC(=O)CNC(=O)CNC(=O)[C@H](CO)NC(=O)[C@H](CCC(=O)O)NC(=O)[C@H](CC(C)C)NC(=O)[C@H](CC(C)C)NC(=O)[C@H](CCCCN)NC(=O)[C@H](CCCCN)NC(=O)[C@H]([C@@H](C)CC)NC(=O)[C@H]([C@@H](C)CC)NC(=O)[C@H](CCCCN)NC(=O)[C@H](CCCCN)NC(=O)[C@H](Cc2ccc(O)cc2)NC(=O)[C@H](CC(C)C)NC(=O)[C@@H]2CCCN2C(=O)[C@H](C)NC(=O)CNC(=O)CNC(=O)[C@H](CO)NC(=O)CNC(=O)CNC(=O)[C@H](CO)NC(=O)[C@H](CCC(=O)O)NC(=O)[C@H](CC(C)C)NC(=O)[C@H](CC(C)C)NC(=O)[C@H](CCCCN)NC(=O)[C@H](CCCCN)NC(=O)[C@H]([C@@H](C)CC)NC1=O`, “remaining intact peptide” read 88.8 ± 2.8% (25% human serum; 50 µM, 24 h; baseline: 0 h control).
`CC[C@H](C)[C@H](NC(=O)[C@H](Cc1ccccc1)NC(=O)[C@H](CC(=O)O)NC(=O)[C@H](CCCN)NC(=O)[C@H](Cc1ccccc1)NC(=O)[C@H](Cc1ccccc1)NC(=O)[C@H](CCCCN)NC(=O)[C@H](CCCN)NC(=O)[C@H](CC(C)C)NC(=O)[C@H](CCCNC(=N)N)NC(=O)[C@H](CCSC)NC(=O)[C@H](C)N)C(=O)N[C@@H](CC(C)C)C(=O)N[C@@H](CCC(N)=O)C(=O)N[C@@H](CCCNC(=N)N)C(=O)N[C@@H](CCCCN)C(=O)N[C@@H](CCCCN)C(=O)O` has a helicity of 18.5% (circular dichroism; 20% TFE in PBS; 200 µM, pH 7.4, 25 °C).
